Assay results pooled from the literature.
A part holds a random share of what one study measured.

Series 1
Target: Histone acetyltransferase KAT6A, both winged helices, GST fusion (KAT6A, Homo sapiens, UniProt Q92794, residues 1-181)
Technique: protein binding microarray
Form: double-stranded DNA, one strand shown
Sample: in vitro
Concentration: not given
Notes: 8-mer, flanks averaged, mean of 2 arrays, mostly near background
Relative to: not given
Reading: higher = stronger binding
Target sequence (chain): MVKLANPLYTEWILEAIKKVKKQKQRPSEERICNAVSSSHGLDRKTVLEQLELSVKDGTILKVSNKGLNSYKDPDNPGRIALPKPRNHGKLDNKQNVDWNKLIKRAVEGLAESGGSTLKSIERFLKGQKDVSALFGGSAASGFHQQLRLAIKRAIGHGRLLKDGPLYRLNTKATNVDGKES
`CCGTTCAG` gave an E-score of 0.0984.
For `AGGACCTC`, the E-score was 0.00147.
`CCTTTTCG` has an E-score of -0.081.
For `AATCGTGT`, the E-score was 0.0997.
`GCTGGTCA` has an E-score of -0.032.

Series 2
Target: Interferon regulatory factor 5, full length, phosphomimetic (IRF5, Homo sapiens, UniProt Q13568-2, residues 1-514, S451D/S453D/S456D/S462D)
Technique: protein-binding microarray
Form: double-stranded DNA, one strand shown
Sample: in vitro
Concentration: 940 nM top
Notes: 60-bp whole probe
Added: salmon DNA 0.4 mg/ml
Relative to: random background probes
Reading: higher = stronger binding
Shared flanks, not repeated: GCCTAGCAC … GTCTTGATTCGCTTGACGCTGCTG
For `GACGATTTCGGGAGTGGAGACGTGCTA`, “fitted relative affinity” read 0.373 z-score.
`GACGAACTGAGTCTCGAGAAGTGCTAG`: “fitted relative affinity” 0.549 z-score.
`TTAGGTCTCGGACTGGGTTCGTGCTAG` — result for “fitted relative affinity”: 0.987 z-score.
For `GACCATTTCAGTTTCGAGACGTGCTAG`, “fitted relative affinity” read 5.26 z-score.
`GACGGTATCGACACAGGGGACGTGCTA`: “fitted relative affinity” 4.25 z-score.
For `TTAGATCTCAGTTTCGATAAGTGCTAG`, “fitted relative affinity” read 7.06 z-score.

Series 3
Target: TAR DNA-binding protein 43, full length, His tag (TARDBP, Homo sapiens, UniProt Q13148, residues 1-414)
Technique: RNA Bind-n-Seq
Form: RNA
Sample: in vitro
Concentration: 20 nM
Notes: 6-mer, flanks averaged, single round
Added: 150 mM LiCl
Relative to: input library
Reading: higher = stronger binding
For `UUGGUG`, “6-mer enrichment (R)” read 1.41.
`UCAAAU`: “6-mer enrichment (R)” 0.89.
For `CUGAAA`, “6-mer enrichment (R)” read 0.824.
`AUCGAC` — result for “6-mer enrichment (R)”: 0.792.

Mixed results
With `PhoQ, residues 284 288 289 292 302 303 SNGLAW` the fold induction was 8.28 (PhoP, residues 12 14 15 18 19 SQCLL (Escherichia coli, UniProt P23836); Sort-seq, refers to: YFP reporter; E. coli; PhoQ-PhoP variant library, added: 10 µM Mg2+; relative to: high Mg2+ state, higher = stronger signaling).

A few entries again (series 1):
`CCTTTTCG` has an E-score of -0.081.
For `AATCGTGT`, the E-score was 0.0997.
